# Experimental data gathered from unrelated publications.
# Protocols differ between the studies behind these lines. ± marks the error that the study gave.
Molecule,cell line,assay,conditions,EC50
CSCC[C@H](NC(=O)[C@H](CC(C)C)NC(=O)CNC(=O)[C@H](Cc1ccccc1)NC(=O)[C@H](Cc1ccccc1)NC(=O)[C@H](CCC(N)=O)NC(=O)[C@H](CCC(N)=O)NC(=O)[C@@H]1CCCN1C(=O)[C@H](CCCCN)NC(=O)[C@@H]1CCCN1C(=O)[C@@H](N)CCCNC(=N)N)C(N)=O,LAD2 human mast cells,"CCL2 release, activator, refers to: CCL2","24 h, 37 °C",1800 nM
CC[C@H](C)[C@H](NC(=O)[C@H](CCC(=O)O)NC(=O)[C@H](CC(=O)O)NC(=O)CNC(=O)[C@H](CC(C)C)NC(=O)[C@H](CCCNC(=N)N)NC(=O)[C@H](CCC(N)=O)NC(=O)[C@H](CC(C)C)NC(=O)[C@H](CO)NC(=O)[C@H](CCC(N)=O)NC(=O)[C@@H](NC(=O)[C@H](CC(C)C)NC(=O)[C@H](Cc1c[nH]c2ccccc12)NC(=O)[C@@H](NC(=O)[C@H](CCC(=O)O)NC(=O)[C@@H]1CCCN1C(=O)[C@H](CCCNC(=N)N)NC(C)=O)[C@@H](C)CC)[C@@H](C)O)C(=O)N[C@@H](CC(N)=O)C(=O)N[C@@H](C)C(=O)N[C@@H](Cc1ccc(O)cc1)C(=O)N[C@@H](Cc1ccc(O)cc1)C(=O)N[C@@H](C)C(=O)N[C@@H](CCCNC(=N)N)C(N)=O,"MDA-MB-231, permeabilized","mitochondrial depolarization, BH3 profiling, JC-1",3 h,> 100000 nM
CCOC(=O)c1ccc(NC2CCCCC2)c(N)c1,HT-1080,"protection from ferroptosis, PrestoBlue","24 h, added: erastin 10 µM",70 nM
COc1cc2ccc(=O)oc2cc1O,Kasumi 1,"cell growth or viability, XTT",,13000 nM
O=c1[nH]cc(F)c(=O)[nH]1,SW-403,"cell viability, trypan blue exclusion",single exposure,1360 ± 60 nM
COc1cc2ncnc(Nc3ccc(F)c(Cl)c3)c2cc1NC(=O)/C=C/CN1CCCCC1,Ba/F3 EGFR D770_N771insSVD,cell proliferation,,680 ± 160 nM
O=C(CCCCCC(=O)NN=Cc1ccc(-c2ccccc2)cc1)NO,mouse primary forebrain neurons,histone H3K9 acetylation,24 h,180 nM
human TGF-beta1,Mv1Lu,"reporter gene, refers to: SBE(CAGA)12 luciferase","concentration not given, 0.2% FBS",~0.01 nM
CCCNCC(O)COc1ccccc1C(=O)CCc1ccccc1 (stereo not drawn),Kasumi 1,"cell growth or viability, XTT",,17200 nM
c1ccc2c(c1)ccn2CCCCN1CCN(C2CCCCC2)CC1,"BxPC-3, AsPC-1, PANC-1, Panc02",cytotoxicity,48 h,> 100000 nM
Cc1ccc(C(=O)OCC(=O)N=c2sccn2Cc2ccccc2Cl)s1,SK-BR-3,"cell growth or viability, MTT",48 h,10000 nM
C=C1CC[C@H](O)C/C1=C/C=C1\CCC[C@]2(C)[C@@H](C(=O)CO)CC[C@@H]12,SK-MEL-188,"cell growth or viability, MTT",,3.4 nM
CC1=C(/C=C/C(C)=C/C=C/C(C)=C/C(=O)O)C(C)(C)CCC1,786-0,cell growth or viability,48 h,23600 nM
CC(=O)c1ccc2c(c1)N(CCCN(C)C)c1ccccc1S2,Kasumi 1,"cell growth or viability, XTT",,15100 nM
O=C1C(=Cc2ccc(Cl)cc2)CSc2ccccc21,SK-BR-3,"cell growth or viability, MTT",48 h,10000 nM
N=C(NCCCCCN)c1ccc(OCCCCCOc2ccc(C(=N)NCCCCCN)cc2)cc1,"WM-115, S100B shRNA","cell growth, SYBR Green",low S100B,33300 ± 500 nM
CCCCCC(O)C=CC1CCC(=O)N1CCCCCCC(=O)O (stereo not drawn),rat bone marrow cells,"alkaline phosphatase activity, activator",9 days,91.2 ± 26.6 nM
C[C@@H]1C[C@H]2[C@@H]3CCC4=CC(=O)C=C[C@]4(C)[C@@]3(F)[C@@H](O)C[C@]2(C)[C@@]1(O)C(=O)CO,Kasumi 1,"cell growth or viability, XTT",,24 nM
O=C(CCCCC[C@@H]1NC(=O)[C@H]2CCCN2C(=O)[C@H](Cc2ccccc2)NC(=O)[C@H](Cc2ccccc2)NC1=O)NO,human iPSC-derived NPCs,"inducer, ELISA, refers to: intracellular progranulin",18 h,450 ± 10 nM
C[C@]12C=CC(=O)C=C1CC[C@@H]1[C@@H]2[C@@H](O)C[C@@]2(C)[C@H]1CC[C@]2(O)C(=O)CO,Kasumi 1,"cell growth or viability, XTT",,110 nM
CCC#CC[C@H](C)[C@H](O)/C=C/[C@H]1CC(F)(F)C(=O)N1CCCCCCC(=O)O,rat bone marrow cells,"alkaline phosphatase activity, activator",9 days,2.44 ± 0.45 nM
